Results collected from several papers.
Protocols differ between the studies behind these lines. “And” joins repeats or separate records; there may be more than shown.

SMILES = N[C@H](C(=O)N1CCCC1)C1CCN(c2nccc3c(-c4ncc(Cl)cc4Cl)cccc23)CC1; target = Protein-arginine deiminase type-3 (PADI3, Homo sapiens, UniProt Q9ULW8); assay = enzyme activity; setting = 0.2458 µM, with: Ca2+ 0.25 mM; quantity = kcat; value = 0.0359 s⁻¹ and 0.0357 s⁻¹
SMILES = O=C1NC(=O)c2c1c1cc(F)c[n+]3c1c1c2c2cc(O)ccc2[n]1[Ru-4]312([N]=C=S)[S+]3CC[S+]1CC[S+]2CC3 (centres unmarked); target = Serine/threonine-protein kinase PLK2 (PLK2, Homo sapiens, UniProt Q9NYY3); assay = enzyme activity; setting = 100 nM, human enzyme, with: 10 µM ATP; scale = baseline: untreated; quantity = remaining activity; value = 93%
SMILES = CCOC(=O)[C@@H]1Cc2c(cc([N+](=O)[O-])cc2[N+](=O)[O-])[C@H](O)[C@]12C(=O)Nc1ccc(Br)cc12; target = Tyrosine-protein kinase ABL1, phosphorylated (ABL1, Homo sapiens, UniProt P00519, T315I); assay = binding, competition with immobilised ligand; setting = 0.1 µM; quantity = remaining binding; value = 84%
SMILES = CS(C)(=O)=Nc1ccc(-c2ccc(-c3nc4cc(O[C@@H]5CO[C@H]6[C@@H]5OC[C@H]6O)[nH]c4cc3F)cc2)cc1; target = Tyrosine-protein kinase ITK/TSK (ITK, Homo sapiens, UniProt Q08881); assay = enzyme activity, inhibitor; setting = 10 µM; quantity = inhibition; value = 8%
SMILES = CC(C)[C@H]1NC(=O)C[C@H]2/C=C/CCSSC[C@@H](NC1=O)C(=O)N[C@H](Cc1cccc3ccccc13)C(=O)NCC(=O)O2; target = Serine/threonine-protein kinase N1 (PKN1, Homo sapiens, UniProt Q16512); assay = enzyme activity, inhibitor; setting = 10 µM; quantity = inhibition; value = 9.1%
SMILES = CN(C)[C@H]1C[C@@]23CC[C@@]4(O2)C(=CC[C@]2(C)[C@@H](c5ccc6ccncc6c5)CC[C@H]24)C=C3[C@@H](O)[C@@H]1O; target = Serine/threonine-protein kinase 16 (STK16, Homo sapiens, UniProt O75716); assay = ATP probe labelling, inhibitor, KiNativ profiling; setting = 0.1 µM; quantity = inhibition; value = -5%
SMILES = CC(C)CC(O)(CC(C)C)c1cn(C(=O)N2CCCC2)nn1; target = Palmitoyl-protein thioesterase 1 (Ppt1, Mus musculus, UniProt O88531); assay = probe labelling, inhibitor, refers to: Ppt1; system = mouse, brain; setting = i.p., 0.8 mg/kg, 4 h, protein level; scale = baseline: treated over vehicle mice, lower = stronger inhibition; quantity = activity ratio-of-ratios; value = 0.92
SMILES = C#CCCCCOc1ccc2c(c1)CCCN2C(=O)CCl; target = Cytoskeleton-associated protein 4 (Homo sapiens, UniProt Q07065); assay = mass spectrometry profiling; system = H460 cell lysate; setting = 100 µM over 10 µM, UniProt Q07065; scale = baseline: high over low concentration; quantity = reactivity ratio; value = 0.558
